{"data": "Experimental data of several laboratories", "note": "Parts stem from different laboratories: compare values within a part only. Changes are numbered by the printed parent chain."}
{"data": "Block 1", "target": "Ras GTPase-activating protein-binding protein 1, C-terminal RGG region (G3BP1, Homo sapiens, UniProt Q13283)", "method": "RNA Bind-n-Seq", "form": "RNA", "sample": "in vitro", "tested at": "1 µM", "notes": "whole 134-nt RNA, ends assumed", "with": "150 mM KCl", "reference": "input library", "direction": "higher = stronger binding", "all sequences stand within": "GGGAGUUCUACAGUCCGACGAUC … UGGAAUUCUCGGGUGUCAAGG", "chain of UniProt Q13283 (whole entry, looked up)": "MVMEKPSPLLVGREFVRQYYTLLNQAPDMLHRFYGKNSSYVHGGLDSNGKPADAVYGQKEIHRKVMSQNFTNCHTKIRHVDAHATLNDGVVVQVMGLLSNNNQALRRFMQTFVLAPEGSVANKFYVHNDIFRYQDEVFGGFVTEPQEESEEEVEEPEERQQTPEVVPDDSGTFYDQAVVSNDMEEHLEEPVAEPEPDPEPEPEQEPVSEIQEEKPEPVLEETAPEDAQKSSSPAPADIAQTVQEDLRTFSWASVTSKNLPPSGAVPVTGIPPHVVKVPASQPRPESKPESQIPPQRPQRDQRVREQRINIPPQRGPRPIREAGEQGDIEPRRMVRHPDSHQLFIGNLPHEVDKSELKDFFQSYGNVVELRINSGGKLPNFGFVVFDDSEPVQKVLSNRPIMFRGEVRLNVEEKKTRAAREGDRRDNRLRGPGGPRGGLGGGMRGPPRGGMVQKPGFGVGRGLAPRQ"}
{"Oligonucleotide": "ACCAUGCAGGUGAAAAUCUUUGGGAAGUGGGGCAAGGGGGGGAUAGGGAGGGGGGUAACACUUUGGGAACAGGUGGUCCCAGGUCGUUUC", "log2 enrichment": -1.07}
{"Oligonucleotide": "CUUUGUAAUGGGAACUGCCUCUUUCCUGUUGUUGUUAAUGAAAAUGUCAGAAACCAGUUAUGUGAAUGAUCUCUCUGAAUCCUAAGGGCU", "log2 enrichment": -0.604}
{"Oligonucleotide": "CCUGUGCUACACAUCGUAUGUACCGAAUCGGGAAAAAAGGGGAAAAAAGGGAAAAAAGGGAAAGUAUUAUGUUACGCCGUUCGGAUCUGC", "log2 enrichment": -1.65}
{"Oligonucleotide": "AGUCCUGUGCUACACAUCGUAUGUACCGAAUCGGGAAAGGGUUUGGGAAAAAAAGGGAAAGUAUUAUGUUACGCCGUUCGGAUCUGCACU", "log2 enrichment": -0.397}
{"Oligonucleotide": "CCUGUGCUACACAUCGUAUGUACCGAAUCGGGGUUUUUGGGGUUUUUUUGGGGAAAGGGGAAAGUAUUAUGUUACGCCGUUCGGAUCUGC", "log2 enrichment": 0.779}
{"data": "Block 2", "target": "Centromere-binding protein 1, full length, N-terminal tag (CBF1, Saccharomyces cerevisiae, UniProt P17106, residues 1-351)", "method": "protein-binding microarray", "form": "double-stranded DNA, one strand shown", "sample": "in vitro", "tested at": "0.8 µM", "notes": "whole 60-bp probe, no competitor", "direction": "higher = stronger binding", "all sequences stand within": "… GTCTTGATTCGCTTGACGCTGCTG", "chain of UniProt P17106 (whole entry, looked up)": "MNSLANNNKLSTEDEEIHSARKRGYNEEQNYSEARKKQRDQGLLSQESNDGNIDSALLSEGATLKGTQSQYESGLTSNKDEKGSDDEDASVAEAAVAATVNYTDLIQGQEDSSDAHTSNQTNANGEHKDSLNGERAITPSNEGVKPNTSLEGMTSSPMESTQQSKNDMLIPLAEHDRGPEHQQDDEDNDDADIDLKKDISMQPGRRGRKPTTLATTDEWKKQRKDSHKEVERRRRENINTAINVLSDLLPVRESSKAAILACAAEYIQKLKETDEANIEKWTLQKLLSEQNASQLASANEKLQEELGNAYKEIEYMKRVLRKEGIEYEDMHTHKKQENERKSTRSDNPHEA"}
{"Oligonucleotide": "GAAGTTATTGCGGCGCACGTCTATAGGTGATTTTAG", "fluorescence intensity [a.u.]": 531}
{"Oligonucleotide": "CTAACTTTAAAATGCCACGAGTCGCCCCGTACCTTC", "fluorescence intensity [a.u.]": 555}
{"Oligonucleotide": "CTACACCACATCAACAGGTGAACTCAAAATTACTTC", "fluorescence intensity [a.u.]": 526}
{"Oligonucleotide": "CTATAGGTATACAGTCACGACTATAATATCATATTC", "fluorescence intensity [a.u.]": 749}
{"Oligonucleotide": "GAAATACTTCTTCGTGATGCGAATTTGATTGACTAG", "fluorescence intensity [a.u.]": 586}
{"Oligonucleotide": "GAAACCTGTACTCTACACGTTTATTGTTAAACATAG", "fluorescence intensity [a.u.]": 599}
{"Oligonucleotide": "CTATCCTTTTTTAGCACGTGAACGGTAATAACGTTC", "fluorescence intensity [a.u.]": 11900}
{"Oligonucleotide": "TGTACGAAGCTATTATTACACGTTATAGTAGTTAGG", "fluorescence intensity [a.u.]": 556}
{"data": "Block 3", "target": "ABI1, truncated, D143A, DHFR fusion (Arabidopsis thaliana)", "method": "DHFR PCA, deep sequencing", "sample": "yeast", "notes": "methotrexate growth selection, single substitutions", "with": "(+)-ABA 2500 µM", "reference": "wild-type fitted maximum", "direction": "higher = stronger binding", "parent": "PYL1, truncated, DHFR fusion (Arabidopsis thaliana); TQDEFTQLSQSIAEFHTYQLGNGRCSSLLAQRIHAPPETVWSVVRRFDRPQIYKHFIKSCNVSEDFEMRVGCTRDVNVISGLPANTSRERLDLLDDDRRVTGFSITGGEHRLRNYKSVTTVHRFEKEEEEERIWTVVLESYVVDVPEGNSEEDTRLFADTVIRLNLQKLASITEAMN; partner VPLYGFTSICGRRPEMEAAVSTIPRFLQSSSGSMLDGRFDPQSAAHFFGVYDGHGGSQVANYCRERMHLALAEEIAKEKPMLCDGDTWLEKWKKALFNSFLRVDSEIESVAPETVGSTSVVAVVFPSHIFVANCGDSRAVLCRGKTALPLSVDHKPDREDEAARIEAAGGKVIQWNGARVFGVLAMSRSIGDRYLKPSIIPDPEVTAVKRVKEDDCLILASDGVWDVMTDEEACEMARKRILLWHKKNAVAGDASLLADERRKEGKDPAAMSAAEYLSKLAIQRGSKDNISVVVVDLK"}
{"Change": "P36E", "relative binding score": "98.4%"}
{"Change": "L93H", "relative binding score": "112%"}
{"Change": "R99N", "relative binding score": "99.2%"}
{"Change": "G23L", "relative binding score": "94.2%"}
{"Change": "V118L", "relative binding score": "101%"}
{"Change": "C72P", "relative binding score": "62.4%"}
{"data": "Other studies, line by line"}
{"Molecule": "PhoQ, residues 284 288 289 292 302 303 SSCCRF", "target": "PhoP, residues 12 14 15 18 19 LYFRQ (Escherichia coli, UniProt P23836)", "assay": "Sort-seq, item: YFP reporter", "system": "E. coli", "setting": "PhoQ-PhoP variant library, with: 10 µM Mg2+", "scale": "reference: high Mg2+ state, higher = stronger signaling", "measurement": "fold induction", "result": 9.1}
{"note": "Repeated from above (block 2):"}
{"Oligonucleotide": "GAAATACTTCTTCGTGATGCGAATTTGATTGACTAG", "fluorescence intensity [a.u.]": 586}
